Published values collected from several papers.
Each line is one published result; not all experiments were run side by side. ± marks the error that the study gave. Non-standard residues stand in square brackets, D forms with d. Square brackets hold non-standard residues; d marks the D form. Where no end group is shown, it is not given here. Ends that are not written are not given here. No end group written: not given here. The star is where a group is joined. * marks the point of attachment.
Form: peptide
DAXX: DAXX 55-144 (Homo sapiens, UniProt Q9UER7)
Sequence of UniProt Q9UER7 (whole entry, looked up): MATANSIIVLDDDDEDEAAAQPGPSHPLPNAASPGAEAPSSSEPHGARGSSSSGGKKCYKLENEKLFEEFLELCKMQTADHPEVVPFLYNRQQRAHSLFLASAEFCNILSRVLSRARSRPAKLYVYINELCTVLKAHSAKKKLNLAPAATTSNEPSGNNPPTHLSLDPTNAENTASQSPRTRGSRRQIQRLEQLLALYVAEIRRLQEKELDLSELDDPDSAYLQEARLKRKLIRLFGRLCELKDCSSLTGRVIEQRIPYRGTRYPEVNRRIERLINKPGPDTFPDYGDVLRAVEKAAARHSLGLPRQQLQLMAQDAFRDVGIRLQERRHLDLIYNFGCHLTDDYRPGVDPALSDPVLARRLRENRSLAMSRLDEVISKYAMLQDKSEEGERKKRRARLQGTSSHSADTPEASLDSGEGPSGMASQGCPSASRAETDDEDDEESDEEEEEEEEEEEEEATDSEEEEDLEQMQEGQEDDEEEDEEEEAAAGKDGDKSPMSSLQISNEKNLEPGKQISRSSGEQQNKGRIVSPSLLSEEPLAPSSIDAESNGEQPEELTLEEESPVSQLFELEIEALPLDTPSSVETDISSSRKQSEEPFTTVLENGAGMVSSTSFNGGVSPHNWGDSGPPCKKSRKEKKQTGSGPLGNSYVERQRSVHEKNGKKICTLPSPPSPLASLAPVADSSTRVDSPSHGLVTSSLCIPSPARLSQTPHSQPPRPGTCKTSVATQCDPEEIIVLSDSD
Sequence of UniProt Q8N2H9 (whole entry, looked up): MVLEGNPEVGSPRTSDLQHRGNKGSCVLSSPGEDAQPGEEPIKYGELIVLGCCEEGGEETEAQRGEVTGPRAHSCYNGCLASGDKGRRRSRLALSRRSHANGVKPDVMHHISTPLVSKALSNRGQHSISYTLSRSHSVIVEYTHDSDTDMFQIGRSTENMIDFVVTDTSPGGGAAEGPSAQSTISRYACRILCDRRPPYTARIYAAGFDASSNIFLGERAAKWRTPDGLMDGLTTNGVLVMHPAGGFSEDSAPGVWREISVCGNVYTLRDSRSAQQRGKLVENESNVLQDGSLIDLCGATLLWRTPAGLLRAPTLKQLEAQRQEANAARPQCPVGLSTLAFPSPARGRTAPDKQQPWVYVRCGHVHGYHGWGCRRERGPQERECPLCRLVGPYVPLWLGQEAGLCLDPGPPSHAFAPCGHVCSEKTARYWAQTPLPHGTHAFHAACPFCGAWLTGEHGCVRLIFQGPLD
Sequence of UniProt P0ADV1 (whole entry, looked up): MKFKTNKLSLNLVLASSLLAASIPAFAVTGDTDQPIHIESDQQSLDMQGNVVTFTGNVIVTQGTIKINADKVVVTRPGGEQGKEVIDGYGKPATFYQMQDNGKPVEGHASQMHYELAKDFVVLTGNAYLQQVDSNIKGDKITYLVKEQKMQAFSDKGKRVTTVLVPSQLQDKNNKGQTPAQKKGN
Sequence of UniProt P20936 (whole entry, unmodified, looked up): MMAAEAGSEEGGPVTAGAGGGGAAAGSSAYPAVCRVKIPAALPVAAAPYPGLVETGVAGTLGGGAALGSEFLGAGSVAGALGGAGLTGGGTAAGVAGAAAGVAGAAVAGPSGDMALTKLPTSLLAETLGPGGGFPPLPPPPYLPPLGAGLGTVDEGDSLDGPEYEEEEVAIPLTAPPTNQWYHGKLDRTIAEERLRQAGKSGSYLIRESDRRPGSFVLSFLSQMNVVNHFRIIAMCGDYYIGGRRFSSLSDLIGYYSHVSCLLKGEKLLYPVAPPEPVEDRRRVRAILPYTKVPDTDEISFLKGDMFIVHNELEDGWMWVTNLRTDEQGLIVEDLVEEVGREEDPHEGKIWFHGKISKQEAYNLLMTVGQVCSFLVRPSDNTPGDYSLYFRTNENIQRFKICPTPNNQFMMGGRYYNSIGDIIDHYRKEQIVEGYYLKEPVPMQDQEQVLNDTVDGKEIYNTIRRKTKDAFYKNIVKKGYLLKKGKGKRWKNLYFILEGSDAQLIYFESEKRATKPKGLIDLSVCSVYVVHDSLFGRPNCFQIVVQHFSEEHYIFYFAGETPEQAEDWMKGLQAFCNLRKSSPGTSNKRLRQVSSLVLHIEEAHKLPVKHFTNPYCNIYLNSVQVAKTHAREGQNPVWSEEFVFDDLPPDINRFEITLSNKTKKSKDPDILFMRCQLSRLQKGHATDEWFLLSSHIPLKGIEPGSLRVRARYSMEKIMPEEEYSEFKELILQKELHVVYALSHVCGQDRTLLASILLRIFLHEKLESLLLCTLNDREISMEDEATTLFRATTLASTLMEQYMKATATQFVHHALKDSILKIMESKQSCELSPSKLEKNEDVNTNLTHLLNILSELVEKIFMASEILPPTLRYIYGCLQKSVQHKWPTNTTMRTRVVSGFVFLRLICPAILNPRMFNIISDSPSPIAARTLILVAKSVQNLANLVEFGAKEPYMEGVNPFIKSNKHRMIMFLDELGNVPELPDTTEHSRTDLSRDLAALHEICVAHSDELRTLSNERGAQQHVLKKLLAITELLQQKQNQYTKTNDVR
Sequence of UniProt P62258 (whole entry, looked up): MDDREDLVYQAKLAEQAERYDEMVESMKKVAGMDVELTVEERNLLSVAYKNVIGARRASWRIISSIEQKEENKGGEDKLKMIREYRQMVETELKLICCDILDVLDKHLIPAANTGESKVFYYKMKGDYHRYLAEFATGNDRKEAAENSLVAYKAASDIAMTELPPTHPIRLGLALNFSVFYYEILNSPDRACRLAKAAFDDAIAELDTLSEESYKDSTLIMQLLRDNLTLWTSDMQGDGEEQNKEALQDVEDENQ
Sequence of UniProt P25089 (whole entry, looked up): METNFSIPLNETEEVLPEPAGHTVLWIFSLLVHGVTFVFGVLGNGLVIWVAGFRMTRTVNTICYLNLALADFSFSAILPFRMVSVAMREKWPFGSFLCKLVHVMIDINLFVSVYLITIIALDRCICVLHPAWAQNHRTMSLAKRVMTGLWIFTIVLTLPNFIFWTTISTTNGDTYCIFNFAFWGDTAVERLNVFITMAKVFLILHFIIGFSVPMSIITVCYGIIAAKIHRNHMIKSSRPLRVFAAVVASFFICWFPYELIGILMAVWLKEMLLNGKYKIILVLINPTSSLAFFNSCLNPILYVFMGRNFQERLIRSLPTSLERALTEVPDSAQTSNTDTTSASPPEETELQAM
Sequence of UniProt P29590 (whole entry, unmodified, looked up): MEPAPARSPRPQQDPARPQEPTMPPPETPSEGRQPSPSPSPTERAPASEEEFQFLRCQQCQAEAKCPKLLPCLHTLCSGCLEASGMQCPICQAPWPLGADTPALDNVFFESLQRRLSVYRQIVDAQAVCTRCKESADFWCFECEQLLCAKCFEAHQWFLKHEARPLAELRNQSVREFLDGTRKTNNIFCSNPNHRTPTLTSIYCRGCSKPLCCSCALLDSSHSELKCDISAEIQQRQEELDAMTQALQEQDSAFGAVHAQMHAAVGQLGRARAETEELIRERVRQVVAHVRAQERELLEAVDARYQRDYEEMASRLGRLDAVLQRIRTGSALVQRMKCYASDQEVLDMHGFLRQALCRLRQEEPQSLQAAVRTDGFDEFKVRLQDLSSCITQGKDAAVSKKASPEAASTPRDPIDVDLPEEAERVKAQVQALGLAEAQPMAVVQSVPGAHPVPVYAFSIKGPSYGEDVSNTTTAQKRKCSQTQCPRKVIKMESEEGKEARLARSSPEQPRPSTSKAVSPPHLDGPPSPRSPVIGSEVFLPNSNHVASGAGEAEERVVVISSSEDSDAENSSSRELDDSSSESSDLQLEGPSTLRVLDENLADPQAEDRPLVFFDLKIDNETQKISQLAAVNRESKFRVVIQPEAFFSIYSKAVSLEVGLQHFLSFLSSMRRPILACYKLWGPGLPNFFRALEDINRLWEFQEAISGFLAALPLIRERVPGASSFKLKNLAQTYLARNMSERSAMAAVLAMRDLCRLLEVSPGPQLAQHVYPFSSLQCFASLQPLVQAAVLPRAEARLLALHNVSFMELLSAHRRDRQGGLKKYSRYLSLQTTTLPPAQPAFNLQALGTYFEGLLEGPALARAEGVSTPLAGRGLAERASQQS
Sequence of UniProt P46971 (whole entry, looked up): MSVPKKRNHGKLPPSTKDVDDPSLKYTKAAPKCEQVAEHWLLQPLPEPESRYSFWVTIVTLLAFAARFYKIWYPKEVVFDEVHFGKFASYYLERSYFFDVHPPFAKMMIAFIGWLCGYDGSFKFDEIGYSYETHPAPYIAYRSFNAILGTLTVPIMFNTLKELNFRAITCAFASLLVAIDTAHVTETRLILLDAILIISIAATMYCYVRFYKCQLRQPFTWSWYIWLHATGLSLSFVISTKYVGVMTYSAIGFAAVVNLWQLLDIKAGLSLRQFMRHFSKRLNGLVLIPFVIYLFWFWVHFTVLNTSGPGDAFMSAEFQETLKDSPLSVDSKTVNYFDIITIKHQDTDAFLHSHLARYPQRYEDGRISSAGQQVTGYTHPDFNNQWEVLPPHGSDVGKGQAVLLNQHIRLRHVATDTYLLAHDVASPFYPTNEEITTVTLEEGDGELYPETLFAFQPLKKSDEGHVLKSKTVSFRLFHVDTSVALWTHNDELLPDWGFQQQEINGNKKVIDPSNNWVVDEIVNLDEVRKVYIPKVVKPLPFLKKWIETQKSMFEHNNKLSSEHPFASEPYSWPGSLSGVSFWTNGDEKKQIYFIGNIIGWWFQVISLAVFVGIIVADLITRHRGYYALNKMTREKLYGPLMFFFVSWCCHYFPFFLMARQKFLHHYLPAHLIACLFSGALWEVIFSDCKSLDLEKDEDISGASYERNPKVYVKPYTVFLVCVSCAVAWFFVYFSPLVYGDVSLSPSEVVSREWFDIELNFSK

SGAGEAEERVVVIDDDEDDDAENSSSRY (PML 547-573 S560D/S561D/S562D/S565D (Homo sapiens, UniProt P29590)) — Kd (SUMO2 2-93 C48A (Homo sapiens, UniProt P61956); ITC; pH 7.4, 25 °C, NaCl 50 mM, with: ZnSO4 1 mM): 6.5 ± 1.2 µM
{TAMRA}-RRRAV[pS]MDNSN (FOXO3 248-258 (human); pS253, N-terminal TAMRA; TAMRA = tetramethylrhodamine; pS = N[C@@H](COP(=O)(O)O)C(=O)O) — Kd (YWHAE (Homo sapiens, UniProt P62258); fluorescence polarisation; pH 7.5): 5.4 µM
{FITC}-FDDDDYDTDF (BLM 291-300 (Homo sapiens, UniProt P54132); N-terminal FITC; FITC = O=C1OC2(c3ccc(O)cc3Oc3cc(O)ccc32)c2ccc(NC(=S)*)cc21; sequence looked up) — Kd (MCM6 708-821 C721S (Homo sapiens, UniProt Q14566); fluorescence polarisation; pH 6.5, NaCl 50 mM): 97.3 ± 3.8 µM
{FITC}-GFID[pS]D[pT]DVEEE-NH2 (peptide; N-terminal FITC, pS5, pT7, C-terminal amide; FITC = O=C1OC2(c3ccc(O)cc3Oc3cc(O)ccc32)c2ccc(NC(=S)*)cc21; pS = N[C@@H](COP(=O)(O)O)C(=O)O; pT = C[C@@H](OP(=O)(O)O)[C@H](N)C(=O)O) — Kd (TOPBP1 641-746 A707K (Homo sapiens, UniProt Q92547); fluorescence polarisation; pH 7.5, NaCl 150 mM): 12 ± 0.9 µM
MLGMIKNSLFGSVETWPWQVLY (F2L 1-21 plus C-terminal Tyr (Homo sapiens); 125I-Tyr) — Kd (FPR3 (Homo sapiens, UniProt P25089); radioligand binding; CHO-K1): 0.0117 µM
PENRIAKKMLLEEIKANL (ATRX 1267-1284 (Homo sapiens, UniProt P46100); sequence looked up) — Kd (DAXX; ITC; pH 7.5, 25 °C): 101 µM
ASKTSTNATSSSCATPSLKD (CCW5 108-127 (Saccharomyces cerevisiae)) — Kd (PMT4 330-521 (Saccharomyces cerevisiae, UniProt P46971); ITC; pH 7.5, 4 °C): 12 ± 0.9 µM
H-SDQEAK (SUMO1 residues 1-6 (Homo sapiens)) — Kd (HERC2 ZZ domain 2702-2755 (Homo sapiens, UniProt O95714); tryptophan fluorescence titration; pH 6.8, NaCl 150 mM): 8 µM
{FITC}-SPGKLLVKMPF-NH2 (MECP2 peptide residues 216-226 (Homo sapiens); N-terminal FITC, C-terminal amide; FITC = O=C1OC2(c3ccc(O)cc3Oc3cc(O)ccc32)c2ccc(NC(=S)*)cc21) — Kd (DNMT3A 476-614 D529A/D530A/D531A (Homo sapiens, UniProt Q9Y6K1); fluorescence polarisation; pH 7.5, 23 °C, KCl 100 mM, simple binding fit): 29.3 µM
EPGP[pY]AQPSVNTP (Crk residues 217-229; pY221; pY = N[C@@H](Cc1ccc(OP(=O)(O)O)cc1)C(=O)O) — Kd (Abl1 120-220 (Mus musculus, UniProt P00520); NMR titration; 25 °C): 69 µM
fluorescein-GYSEVNLSKLFAGCAVKS (POLA1 residues 1445-1462 (Homo sapiens); N-terminal fluorescein; fluorescein = fluorescein label on the N-terminus) — Kd (PRIM1/PRIM2 PRIM1 1-420, PRIM2 1-462 K72A/M73A (Homo sapiens); fluorescence polarisation; pH 7.2, with: fluorescein-labeled peptide 30 nM): 0.245 µM
PENRIAKKMLLEEIKANLSSDEDG (ATRX 1267-1290 (Homo sapiens, UniProt P46100); sequence looked up) — Kd (DAXX; ITC; pH 7.5, 25 °C): 31 µM
Ac-DPSD[pY]AEPMDAVVKPRNEEENI[pY]SVPHDS-NH2 (ARHGAP35 residues 1083-1111 (Homo sapiens); pY1087/pY1105, N-acetyl, C-amide; pY = N[C@@H](Cc1ccc(OP(=O)(O)O)cc1)C(=O)O) — Kd (RASA1 174-444 C236S/C261S/C372S/C402S (Homo sapiens, UniProt P20936); ITC; pH 8.0, NaCl 250 mM): 0.01 µM
MWPHRVTAAK (peptide; cyclic DSG, fluorescein) — Kd (MAP1LC3A (Homo sapiens, UniProt Q9H492); fluorescence polarisation): 0.101 ± 0.022 µM
DNDPENRIAKKMLLEEIKANLS (ATRX 1264-1285 (Homo sapiens, UniProt P46100); sequence looked up) — Kd (DAXX; ITC; pH 7.5, 25 °C): 0.75 µM
fluorescein-YSSAS[pT]FLSP-NH2 (IRAK1 residues 137-145 (Homo sapiens, UniProt P51617); also: fluorescein: FITC or 5,6-FAM; pT141, C-terminal amide, N-terminal fluorescein; pT = C[C@@H](OP(=O)(O)O)[C@H](N)C(=O)O) — Kd (PELI3 40-305 (Homo sapiens, UniProt Q8N2H9); fluorescence polarisation; 25 °C): 9.8 µM
DDNDPENRIAKKMLLEEIKANLSSDEDG (ATRX 1263-1290 (Homo sapiens, UniProt P46100); sequence looked up) — Kd (DAXX; ITC; pH 7.5, 25 °C): 0.97 µM
GSKKPVPIIYCNRKTGKCQRM (Podisus maculiventris peptide mature R14K (Podisus maculiventris, UniProt P55788); sequence looked up) — Kd (lptA 28-158 (Escherichia coli, UniProt P0ADV1); BLI; 25 °C, steady-state fit): 0.0015 µM

A few entries again:
{FITC}-SPGKLLVKMPF-NH2 (MECP2 peptide residues 216-226 (Homo sapiens); N-terminal FITC, C-terminal amide; FITC = O=C1OC2(c3ccc(O)cc3Oc3cc(O)ccc32)c2ccc(NC(=S)*)cc21) — Kd (DNMT3A 476-614 D529A/D530A/D531A (Homo sapiens, UniProt Q9Y6K1); fluorescence polarisation; pH 7.5, 23 °C, KCl 100 mM, simple binding fit): 29.3 µM
